{"data": "Measured values collected from several papers", "note": "Parts stem from different laboratories: compare values within a part only. Substitutions count along the parent as printed.", "UniProt Q9Y385, sequence (whole entry, looked up)": "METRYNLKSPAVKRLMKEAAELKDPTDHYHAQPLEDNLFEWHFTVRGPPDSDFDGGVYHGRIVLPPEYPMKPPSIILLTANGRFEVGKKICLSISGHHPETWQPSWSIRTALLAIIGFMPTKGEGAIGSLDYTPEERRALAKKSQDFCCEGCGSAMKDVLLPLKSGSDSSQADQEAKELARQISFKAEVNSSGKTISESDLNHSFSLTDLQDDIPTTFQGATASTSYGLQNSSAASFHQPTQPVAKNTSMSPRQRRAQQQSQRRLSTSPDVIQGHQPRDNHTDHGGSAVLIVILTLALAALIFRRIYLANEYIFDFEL", "UniProt Q712K3, sequence (whole entry, looked up)": "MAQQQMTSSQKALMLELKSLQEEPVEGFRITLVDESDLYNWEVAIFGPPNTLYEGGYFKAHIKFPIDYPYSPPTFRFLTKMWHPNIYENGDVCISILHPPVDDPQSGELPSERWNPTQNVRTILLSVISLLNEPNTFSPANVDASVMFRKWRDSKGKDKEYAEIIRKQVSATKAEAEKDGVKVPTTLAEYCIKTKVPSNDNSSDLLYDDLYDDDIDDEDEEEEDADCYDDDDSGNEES", "UniProt O00762, sequence (whole entry, looked up)": "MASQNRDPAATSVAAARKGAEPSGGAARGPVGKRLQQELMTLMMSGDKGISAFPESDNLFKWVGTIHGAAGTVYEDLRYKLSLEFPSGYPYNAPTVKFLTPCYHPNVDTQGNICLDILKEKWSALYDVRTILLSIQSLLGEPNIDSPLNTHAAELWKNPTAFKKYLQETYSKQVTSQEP", "UniProt P63146, sequence (whole entry, looked up)": "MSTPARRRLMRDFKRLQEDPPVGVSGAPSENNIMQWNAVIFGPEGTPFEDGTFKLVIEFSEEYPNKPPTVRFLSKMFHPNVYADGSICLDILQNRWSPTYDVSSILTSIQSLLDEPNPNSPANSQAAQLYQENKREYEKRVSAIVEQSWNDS", "UniProt Q969T4, sequence (whole entry, looked up)": "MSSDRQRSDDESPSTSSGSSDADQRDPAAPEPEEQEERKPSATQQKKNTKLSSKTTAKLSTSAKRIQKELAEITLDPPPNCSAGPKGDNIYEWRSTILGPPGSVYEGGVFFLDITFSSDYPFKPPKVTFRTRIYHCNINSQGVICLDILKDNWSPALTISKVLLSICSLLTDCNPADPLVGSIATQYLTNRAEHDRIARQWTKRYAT", "UniProt Q8N2K1, sequence (whole entry, looked up)": "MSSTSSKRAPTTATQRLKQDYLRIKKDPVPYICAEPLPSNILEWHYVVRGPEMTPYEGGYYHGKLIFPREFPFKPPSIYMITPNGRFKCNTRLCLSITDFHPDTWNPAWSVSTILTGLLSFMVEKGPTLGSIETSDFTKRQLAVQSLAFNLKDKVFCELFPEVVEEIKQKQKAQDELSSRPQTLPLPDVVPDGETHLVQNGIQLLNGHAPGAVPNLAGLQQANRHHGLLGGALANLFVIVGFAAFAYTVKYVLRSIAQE", "UniProt P51668, sequence (whole entry, looked up)": "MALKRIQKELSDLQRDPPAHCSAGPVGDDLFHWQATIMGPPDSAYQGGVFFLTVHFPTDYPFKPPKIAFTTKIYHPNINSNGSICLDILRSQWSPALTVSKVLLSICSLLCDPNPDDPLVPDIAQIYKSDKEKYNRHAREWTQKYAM", "UniProt Q9C0C9, sequence (whole entry, looked up)": "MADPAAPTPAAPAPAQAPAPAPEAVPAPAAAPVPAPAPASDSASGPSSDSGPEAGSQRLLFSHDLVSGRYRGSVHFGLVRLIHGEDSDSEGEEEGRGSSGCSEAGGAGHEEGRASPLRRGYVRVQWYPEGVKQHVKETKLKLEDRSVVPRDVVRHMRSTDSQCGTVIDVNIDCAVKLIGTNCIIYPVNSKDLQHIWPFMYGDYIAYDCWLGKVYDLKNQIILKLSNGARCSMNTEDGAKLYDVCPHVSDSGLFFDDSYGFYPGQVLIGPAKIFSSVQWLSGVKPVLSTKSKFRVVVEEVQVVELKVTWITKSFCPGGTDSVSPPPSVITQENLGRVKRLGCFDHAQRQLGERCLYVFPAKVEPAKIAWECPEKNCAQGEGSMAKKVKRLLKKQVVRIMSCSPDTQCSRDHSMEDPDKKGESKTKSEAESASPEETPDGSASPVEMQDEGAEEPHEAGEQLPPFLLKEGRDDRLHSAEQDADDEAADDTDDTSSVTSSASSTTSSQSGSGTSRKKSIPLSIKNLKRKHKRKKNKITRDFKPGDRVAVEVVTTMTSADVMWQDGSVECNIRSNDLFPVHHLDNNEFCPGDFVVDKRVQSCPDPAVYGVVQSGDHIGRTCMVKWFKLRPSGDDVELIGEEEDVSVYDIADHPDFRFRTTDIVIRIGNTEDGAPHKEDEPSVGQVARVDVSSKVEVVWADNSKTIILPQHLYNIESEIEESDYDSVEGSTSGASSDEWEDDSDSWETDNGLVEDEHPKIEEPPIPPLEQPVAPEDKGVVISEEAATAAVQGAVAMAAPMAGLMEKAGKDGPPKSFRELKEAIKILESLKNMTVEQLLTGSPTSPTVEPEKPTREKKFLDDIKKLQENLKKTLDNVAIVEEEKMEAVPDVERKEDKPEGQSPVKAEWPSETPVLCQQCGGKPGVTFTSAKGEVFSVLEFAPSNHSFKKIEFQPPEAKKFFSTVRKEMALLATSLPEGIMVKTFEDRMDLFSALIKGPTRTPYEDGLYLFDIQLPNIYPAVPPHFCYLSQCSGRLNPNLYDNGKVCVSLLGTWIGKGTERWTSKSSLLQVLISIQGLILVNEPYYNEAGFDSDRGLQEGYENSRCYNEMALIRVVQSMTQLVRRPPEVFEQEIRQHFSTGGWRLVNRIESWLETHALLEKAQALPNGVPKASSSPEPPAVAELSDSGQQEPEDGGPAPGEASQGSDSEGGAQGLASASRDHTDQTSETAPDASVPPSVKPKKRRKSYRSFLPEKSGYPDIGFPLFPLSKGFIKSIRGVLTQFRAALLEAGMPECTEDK", "UniProt Q9H832, sequence (whole entry, looked up)": "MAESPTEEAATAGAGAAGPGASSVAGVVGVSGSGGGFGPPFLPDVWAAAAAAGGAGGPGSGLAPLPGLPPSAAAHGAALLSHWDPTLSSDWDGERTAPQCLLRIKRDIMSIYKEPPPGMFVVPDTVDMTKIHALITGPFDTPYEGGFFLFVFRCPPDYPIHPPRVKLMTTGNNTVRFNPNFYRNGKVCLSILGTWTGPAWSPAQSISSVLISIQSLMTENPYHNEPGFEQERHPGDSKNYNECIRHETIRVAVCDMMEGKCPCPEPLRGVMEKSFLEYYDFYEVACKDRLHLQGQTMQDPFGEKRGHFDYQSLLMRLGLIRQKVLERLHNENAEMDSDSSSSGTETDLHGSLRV"}
{"data": "Study 1", "target": "Histone acetyltransferase KAT6A, winged helix 1, GST fusion (KAT6A, Homo sapiens, UniProt Q92794, residues 1-85)", "technique": "protein binding microarray", "molecule type": "double-stranded DNA, one strand shown", "matrix": "in vitro", "tested at": "not given", "setting": "8-mer, flanks averaged, mean of 2 arrays, mostly near background", "baseline": "not given", "direction": "higher = stronger binding", "Residues (chain)": "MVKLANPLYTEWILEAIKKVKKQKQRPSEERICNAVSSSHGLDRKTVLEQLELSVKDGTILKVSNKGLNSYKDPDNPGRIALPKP"}
{"Sequence": "AAAGTTAC", "E-score": -0.038}
{"Sequence": "CGTGAACG", "E-score": 0.0717}
{"Sequence": "CACAGTCG", "E-score": -0.0969}
{"Sequence": "GACGGTCC", "E-score": 0.23}
{"Sequence": "CTTCCCAA", "E-score": -0.274}
{"Sequence": "CACGATCA", "E-score": -0.147}
{"Sequence": "CTCGCAAG", "E-score": -0.195}
{"Sequence": "AGGTTCCG", "E-score": 0.211}
{"Sequence": "AGAGAACC", "E-score": -0.08}
{"Sequence": "CGTTCGAA", "E-score": -0.112}
{"Sequence": "GGTAGGTA", "E-score": -0.0754}
{"Sequence": "GGTCTTAA", "E-score": -0.0356}
{"Sequence": "AGATCGCT", "E-score": 0.117}
{"Sequence": "ATACAAGC", "E-score": -0.0785}
{"Sequence": "CTTCTTGA", "E-score": -0.12}
{"Sequence": "GCCGTGCC", "E-score": 0.383}
{"Sequence": "CTTTTTTA", "E-score": -0.093}
{"Sequence": "AGAGGAAA", "E-score": -0.159}
{"Sequence": "AACGTGAG", "E-score": -0.143}
{"Sequence": "AGGGTATG", "E-score": -0.323}
{"Sequence": "ATGGACTA", "E-score": -0.116}
{"Sequence": "ACTCGATG", "E-score": -0.168}
{"Sequence": "AAGCCTAT", "E-score": -0.0642}
{"Sequence": "AGCTTGCA", "E-score": -0.141}
{"Sequence": "CGTTCCAC", "E-score": 0.181}
{"data": "Study 2", "target": "RNA binding protein fox-1 homolog 2, RRM domain, GST-SBP tag (RBFOX2, Homo sapiens, UniProt O43251-10, residues 100-194)", "technique": "RNA Bind-n-Seq", "molecule type": "RNA", "matrix": "in vitro", "tested at": "365 nM", "setting": "natural RNA segment, single round, ends assumed", "baseline": "no-protein control", "direction": "higher = stronger binding", "Target sequence (chain)": "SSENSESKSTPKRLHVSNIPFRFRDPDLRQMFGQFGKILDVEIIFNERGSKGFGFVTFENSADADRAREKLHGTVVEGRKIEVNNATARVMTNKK"}
{"Sequence": "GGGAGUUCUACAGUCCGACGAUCCCUGGUCUCAGACCAUCGUCUCUGCACUGCGAAGGCAUUUGGUAGCCUCGCCACUGAGAUACUAACUAGACCUAGACUAGGAGCUUUAUCAGGUUCUAGGAGGUCCUUUAUGGAAUUCUCGGGUGCCAA", "RBNS enrichment (R)": 0.221}
{"Sequence": "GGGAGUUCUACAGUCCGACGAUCCAGGAGUCCACUCAGAAGCAUGAGAACGGCCUGUAAUCCAGGCCGUGUCCUGCCACUAUGCCUGUAUUGCUGAGUGCCACCCAAGUCCUCUAUUUGGCUGUAGUCUGCUCUGGAAUUCUCGGGUGCCAA", "RBNS enrichment (R)": 1.9}
{"Sequence": "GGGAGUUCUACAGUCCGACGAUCAUAUAUAUAUGCUGCAUAUAUAUUUAUAAAAUUUCUAGUGGGAGUUCUAUAUAAAAAGAUGUUUCUUUGGUAUUCUUCAGCCUGUGUUUUCAAGUUUUACAGAAGCAGAGUGGAAUUCUCGGGUGCCAA", "RBNS enrichment (R)": 1.12}
{"Sequence": "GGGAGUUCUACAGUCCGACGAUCAGUUAAAAGUGCUGACUGAGCAGUCUGACCCCCACGUGGGCACCUGCACUACCAGUUGUUAGAGGAAAUUCACUCCCUCCUAGUGAGAGUUGAAAGGUCAAAUUAUUUUGUGGAAUUCUCGGGUGCCAA", "RBNS enrichment (R)": 0.356}
{"Sequence": "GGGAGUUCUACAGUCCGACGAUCCUUCUUCCUCCUGUCCGUCUGAUUUACCUAACUUUGGUCUCGGCUGCUGACUCUUGGAGAGGACCAAAUUACUUUGUAGUAUUUCCCCCGUUUGUGUAAUGUCCUGAAACUGGAAUUCUCGGGUGCCAA", "RBNS enrichment (R)": 1.22}
{"Sequence": "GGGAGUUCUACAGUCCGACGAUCGGGAGUGGACACCACAGGAAGACACAGGUUGGAGCAAAACUUGAAUAAUGUCCUUUAUCCUGAUUUGAAAUAAUCACGUCAUCUUUCUGCUGAAUAAAAUUGGUUUGCAAUGGAAUUCUCGGGUGCCAA", "RBNS enrichment (R)": 0.362}
{"Sequence": "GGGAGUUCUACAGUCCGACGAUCAUUUUUCUGAACACUGCAAAAAUAGAACGUAGCAAAAUGGCUUCAGUUAUCACUUUUGGGUGUCUGUAUCCUAAGAAGUUUCUGAAAAGAUCUAAAGCCUUUUUAUCCCAUGGAAUUCUCGGGUGCCAA", "RBNS enrichment (R)": 0.337}
{"Sequence": "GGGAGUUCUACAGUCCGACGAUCUCUGAUUUGGUAUUGUGAUUUACUUCAGACCCUGAAACCAAAUAUCUGAUCUUCCAUUAGACUUAGGGGUCAUGAUAUGAGUGGAAUUUACAUUUUAGAUACUAUAGGGGUGGAAUUCUCGGGUGCCAA", "RBNS enrichment (R)": 0.36}
{"Sequence": "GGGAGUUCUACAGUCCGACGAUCGGGUUGGGACUGUGGAGGCGGCACCCUCUUUAUCCCCUGCUAUCACAGAUGAUCUGUUCACUUGAAGGUGAUUUUUAUCUUGUAGUCAGUGUUACAAGAAAAGGCUGGAAUGGAAUUCUCGGGUGCCAA", "RBNS enrichment (R)": 0.441}
{"Sequence": "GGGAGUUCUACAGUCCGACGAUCAUUCUGAUUACAUGCAGGUUCCUGGAAGGAGUGUGUCAAUCAUUUAGCUGCAUGUCAUCGGCUCAGCAGUGGGAAGGAAAGGGUACUGCUCUGACCUUGUGUAUUCUGACUGGAAUUCUCGGGUGCCAA", "RBNS enrichment (R)": 1.3}
{"Sequence": "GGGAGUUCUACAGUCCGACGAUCAGCACUGACCUGGGAGGCCCCCAAGUAAGGCCAAGAAGUCUCUGCUACUCUAAUCUUUUACGUAUUAAAUGCACUAGGCUAGUAGCCCUUGCCUUUCCUUUCCUGAAACUUGGAAUUCUCGGGUGCCAA", "RBNS enrichment (R)": 0.312}
{"Sequence": "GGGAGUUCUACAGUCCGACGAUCAUUAUCAGGAGAACCCAAGCUGUCUCUGGAUUCGACACCCUUUAAGACAAAUACCUUGGCUCGGGAGGAGUGGGAACAGGGAGAGACAAAAACCACCACUUCCUGGGGAGUGGAAUUCUCGGGUGCCAA", "RBNS enrichment (R)": 0.327}
{"data": "Study 3", "target": "ABI1, truncated, D143A, DHFR fusion (Arabidopsis thaliana)", "technique": "DHFR PCA, deep sequencing", "matrix": "yeast", "setting": "methotrexate growth selection, single substitutions", "together with": "(+)-ABA 0.39 µM", "baseline": "wild-type fitted maximum", "direction": "higher = stronger binding", "starting sequence": "PYL1, truncated, DHFR fusion (Arabidopsis thaliana); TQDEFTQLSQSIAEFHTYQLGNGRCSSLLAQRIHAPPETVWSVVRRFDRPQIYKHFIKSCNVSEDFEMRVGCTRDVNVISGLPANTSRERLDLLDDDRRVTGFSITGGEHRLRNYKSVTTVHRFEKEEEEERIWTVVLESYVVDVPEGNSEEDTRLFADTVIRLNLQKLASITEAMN"}
{"Substitution": "V40R", "relative binding score [%]": -4.43}
{"Substitution": "L8S", "relative binding score [%]": -5.53}
{"Substitution": "K116T", "relative binding score [%]": 19.7}
{"Substitution": "D48E", "relative binding score [%]": 7.14}
{"Substitution": "H16P", "relative binding score [%]": 11.8}
{"Substitution": "G81Q", "relative binding score [%]": 1.03}
{"Substitution": "D153N", "relative binding score [%]": -19.4}
{"Substitution": "L94W", "relative binding score [%]": 12.9}
{"Substitution": "G148W", "relative binding score [%]": -18.7}
{"Substitution": "I52T", "relative binding score [%]": 53.3}
{"Substitution": "K126W", "relative binding score [%]": 7.93}
{"Substitution": "N22D", "relative binding score [%]": 56.2}
{"Substitution": "E67P", "relative binding score [%]": 11.6}
{"Substitution": "K54T", "relative binding score [%]": -18}
{"Substitution": "W41Q", "relative binding score [%]": -7.83}
{"Substitution": "H34I", "relative binding score [%]": 8.86}
{"Substitution": "E128N", "relative binding score [%]": 52.8}
{"Substitution": "V121E", "relative binding score [%]": -3.2}
{"data": "Study 4", "Molecule": "B1 (TRIM54 RING domain)", "technique": "yeast two-hybrid", "matrix": "yeast", "setting": "mostly zero background", "baseline": "not given", "direction": "higher = stronger interaction", "B1": "TRIM54 RING domain (UniProt Q9BYV2); chain SMDNLEKQLICPICLEMFSKPVVILPCQHNLCRKCANDVFQASNPLWQSRGSTTVSSGGRFRCPSCRHEVVLDRHGV"}
{"target": "UBE2B UBC core domain (UniProt P63146)", "lacZ reporter activity": 0}
{"target": "UBE2R2 UBC core domain (UniProt Q712K3)", "lacZ reporter activity": 0}
{"target": "UBE2J2 UBC core domain (UniProt Q8N2K1)", "lacZ reporter activity": 0}
{"target": "UBE2E3 UBC core domain (UniProt Q969T4)", "lacZ reporter activity": 0}
{"target": "UBE2D1 UBC core domain (UniProt P51668)", "lacZ reporter activity": 0}
{"target": "UBE2C UBC core domain (UniProt O00762)", "lacZ reporter activity": 0}
{"target": "UBE2Z UBC core domain (UniProt Q9H832)", "lacZ reporter activity": 0}
{"target": "UBE2J1 UBC core domain (UniProt Q9Y385)", "lacZ reporter activity": 0}
{"target": "UBE2O UBC core domain (UniProt Q9C0C9)", "lacZ reporter activity": 0}
{"data": "Study 5", "target": "PABPC1L2, full length, GST fusion (mouse, UniProt A0ABA7IW68)", "technique": "RNAcompete", "molecule type": "RNA", "matrix": "in vitro", "tested at": "20 nM", "setting": "7-mer, probes averaged, single round", "baseline": "mean of 7-mers", "direction": "higher = stronger binding", "Construct (chain)": "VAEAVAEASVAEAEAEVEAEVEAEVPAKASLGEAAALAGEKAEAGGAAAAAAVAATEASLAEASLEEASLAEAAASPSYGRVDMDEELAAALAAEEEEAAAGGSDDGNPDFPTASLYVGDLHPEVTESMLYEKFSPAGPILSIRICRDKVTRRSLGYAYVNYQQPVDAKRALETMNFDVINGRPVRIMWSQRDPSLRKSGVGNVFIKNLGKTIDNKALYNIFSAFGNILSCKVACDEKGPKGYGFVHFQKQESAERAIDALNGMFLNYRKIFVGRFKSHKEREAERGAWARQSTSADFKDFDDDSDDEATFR"}
{"Sequence": "GAUCCGC", "7-mer Z-score": -0.383}
{"Sequence": "AGGUCAA", "7-mer Z-score": 0.128}
{"Sequence": "CAGCCAG", "7-mer Z-score": -0.19}
{"Sequence": "CGUUCUG", "7-mer Z-score": -0.331}
{"Sequence": "UUAAUGG", "7-mer Z-score": -0.17}
{"Sequence": "UCGAGUU", "7-mer Z-score": -0.315}
{"Sequence": "CCGGGGC", "7-mer Z-score": -0.0899}
{"Sequence": "UAAAACA", "7-mer Z-score": 4.47}
{"Sequence": "GUAAUGG", "7-mer Z-score": 0.066}
{"Sequence": "AUAAAGA", "7-mer Z-score": 3.61}
{"Sequence": "GCCGAAU", "7-mer Z-score": -0.122}
{"Sequence": "CAGUGUA", "7-mer Z-score": 0.0442}
{"Sequence": "CCUGUUA", "7-mer Z-score": -0.347}
{"Sequence": "UAAUCAU", "7-mer Z-score": -0.117}
{"Sequence": "AUAUAGC", "7-mer Z-score": 0.00798}
{"Sequence": "CUCUUAU", "7-mer Z-score": -0.248}
{"Sequence": "CCUUCUG", "7-mer Z-score": -0.331}
{"Sequence": "CUCUUGA", "7-mer Z-score": -0.32}
{"Sequence": "UCUCAAG", "7-mer Z-score": -0.237}
{"Sequence": "CGGGGCU", "7-mer Z-score": 0.2}
{"Sequence": "AGAUUCA", "7-mer Z-score": -0.18}
{"Sequence": "CGUGUUG", "7-mer Z-score": -0.296}
{"Sequence": "ACACGAG", "7-mer Z-score": 0.244}
{"Sequence": "UAAGACG", "7-mer Z-score": 0.0497}
{"Sequence": "UUGGUGU", "7-mer Z-score": -0.309}
{"note": "Excerpt of the above (study 3):"}
{"Substitution": "E67P", "relative binding score [%]": 11.6}
{"Substitution": "L94W", "relative binding score [%]": 12.9}
{"Substitution": "I52T", "relative binding score [%]": 53.3}
{"Substitution": "D153N", "relative binding score [%]": -19.4}
{"Substitution": "G81Q", "relative binding score [%]": 1.03}
{"Substitution": "H34I", "relative binding score [%]": 8.86}
{"Substitution": "E128N", "relative binding score [%]": 52.8}
{"Substitution": "D48E", "relative binding score [%]": 7.14}
{"Substitution": "K54T", "relative binding score [%]": -18}
{"Substitution": "K126W", "relative binding score [%]": 7.93}
{"Substitution": "L8S", "relative binding score [%]": -5.53}
{"Substitution": "N22D", "relative binding score [%]": 56.2}
{"Substitution": "V40R", "relative binding score [%]": -4.43}
{"Substitution": "V121E", "relative binding score [%]": -3.2}
